Assay results collected from several papers.
Lines come from different studies, so protocols differ. Several values in a cell are separate wells, animals, samples, runs or records. Numbers after ± are the reported error.

Structure (SMILES)	assay	system	conditions	how to read	endpoint	value
COc1ccc2c(c1)C(C)(C)C(/C=C/C1=C(Oc3ccc(C(=O)NCCCCOc4cc(CN(Cc5ccccn5)Cc5ccccn5)cc(CN(Cc5ccccn5)Cc5ccccn5)c4)cc3)C(=C/C=C3/N(CCCCS(=O)(=O)[O-])c4ccc(OC)cc4C3(C)C)CCC1)=[N+]2CCCCS(=O)(=O)[O-].O=[N+]([O-])[O-].O=[N+]([O-])[O-].[99Tc+].[C-]#[O+].[C-]#[O+].[C-]#[O+].[Zn+2]		mouse, blood	12 h		tracer uptake	0.62 %ID/g
CN([O-])C(=O)CN1CCN(CC(=O)N(C)[O-])CCN(CC(=O)N(C)[O-])CC1.[89Zr+4]	radio-TLC	human serum	2 days, run 1		intact complex	100%
COC1C=COC2(C)Oc3c(C)c(O)c4c(c3C2=O)C2=NC3(CCN(CC(C)C)CC3)NC2=C(NC(=O)C(C)=CC=CC(C)C(O)C(C)C(O)C(C)C(OC(=O)Nc2cscn2)C1C)C4=O (centres unmarked)		CD-1 mouse female, plasma	intravenous, 5 mg/kg		elimination rate constant	2.81e-05 s⁻¹
COc1ccc(F)cc1C(=O)NCc1ccc(-c2nn([C@@H](C)C(F)(F)F)c(N)c2C(N)=O)cc1		human	intravenous, 22 µg, renal clearance over total clearance		fraction excreted in urine	0.071
OC1(C(F)(F)F)CCN(c2nc(Nc3ccnc(C(F)(F)F)c3)nc(-c3cccc(C(F)(F)F)n3)n2)C1 (centres unmarked)		Sprague-Dawley rat, both sexes, plasma	oral gavage, 5 mg/kg, day 14		AUC(0-t)	22500 ± 7260 ng·h/mL
O=C(Nc1cnccc1-c1ccc([18F])cc1)c1ccnc(NC(=O)C2CC2)c1	ex vivo gamma counting	GSK-3β transgenic mice, late-stage, bone	intravenous, 1.26 MBq/animal, 120 min, mean, no P-gp inhibitor		SUV	0.69
OB(O)c1sccc1/C=N/OCc1ccccc1	chemical stability	PBS	80 µM, pH 9		half-life	1.73 h
C=CC(=O)Nc1cc(Nc2nccc(-c3c[nH]c4ccccc34)n2)c(OC)cc1N(C)CCN(C)C	storage stability	human dried blood spots	24 h, -80 °C, LLOQ level		recovery	82.6%
CCCCN1C(=O)c2cccc3c(NCCCCN4CCOCC4)ccc(c23)C1=O		DMF			fluorescence lifetime	10 ns
COc1cnc2cccc(N3CCc4c(cc(Cn5ccnc5)cc4-c4cn(C)nc4C(F)(F)F)C3=O)c2c1		male CD-1 mouse, plasma	intravenous, 3 mg/kg		MRT(0-inf)	0.5 h
CN(Cc1ccccc1)C(=O)CN1CCN(CC(=O)[O-])CCN(Cc2cccc(C(=O)[O-])n2)CC1.[44Sc+3]		mouse, heart	intravenous, 1 h		tracer uptake	0.21 %ID/g
O=C1C2CC3CC1CC(C(=O)N1CCN(c4ccc([N+](=O)[O-])c5ncccc45)CC1)(C3)C2		male ICR mouse, plasma	oral, 5 mg/kg		AUC(0-inf)	46.6 ng·h/mL
O=C([O-])CN1CCN(CC(=O)[O-])CCN(CC(=O)[O-])CC1.[44Sc+3]		BALB/c mouse, urine	intravenous, 1 h		uptake	195 ± 273 %ID/g
CCC1CNC(CC)CN(C(C(=O)[O-])c2ccc(C(=O)[O-])cc2)C(CC)CN(CC(=O)[O-])C(CC)CN1.[Mn+2] (centres unmarked)	ICP-MS	BALB/c mice, liver	intravenous, 0.05 mmol/kg, 5 min	baseline: injected dose	Mn uptake	8.55 ± 1.4%
CC(C)(O)c1ccc(N2Cc3c(ccnc3-c3ccc(F)cc3OCC(F)(F)F)C2=O)cc1		male C57BL/6 mouse, brain	oral, 1 mg/kg, 6 h		concentration	123 ng/g
O=C1NC2(CC2)COc2ncc(F)cc2[C@H]2COCCN2c2ccn3ncc1c3n2	bone marrow micronucleus test	NIH mice, male	oral, 60 mg/kg/day, 3 days		micronucleus rate	1.05 ± 0.57 ‰
C=C(NC(=O)c1csc(-c2nc3c(cc2O)-c2nc(cs2)C(=O)NC(C(C)O)C(=O)NC(=C(C)OC)c2nc(cs2)C(=O)NC2c4nc(cs4)C(=O)NC(COC(=O)c4c5c6c(cccc6n4O)COC(=O)C(OC4CC(C)(O)C(N(C)C)C(C)O4)C2OC5)c2nc-3cs2)n1)C(N)=O (centres unmarked)	metabolic stability	monkey, liver microsomes	2 µM		half-life	2.26 h
CC[C@H](C)[C@@H]1NC(=O)[C@H](Cc2ccc(O)cc2)NC(=O)CCCSC[C@@H](C(=O)N(CC(=O)N[C@@H](CC(C)C)C(=O)NCC(N)=O)Cc2ccc(F)cc2)NC(=O)[C@H](CC(N)=O)NC(=O)[C@H](CCC(N)=O)NC1=O		human	intranasal, 300 µg single dose		severe adverse events	0%
CCCCN1C(=O)c2cccc3c(NCCCCCCCCCCN4CCOCC4)ccc(c23)C1=O		toluene			fluorescence quantum yield	1.03

Structure (SMILES)	assay	system	conditions	how to read	endpoint	value
CNc1cc(N)c(C(N)=O)cn1	metabolic stability	male Wistar rat, hepatocytes	1 µM, pH 7.4		hepatocyte CLint	< 1.3 µL/min/10⁶ cells
Cc1nn(-c2nc3c(F)cc(F)cc3s2)c(O)c1C(c1ccc(C(F)(F)F)cc1)c1c(C)nn(-c2nc3c(F)cc(F)cc3s2)c1O		ICR mouse, plasma	intraperitoneal, 10 mg/kg		Tmax	2 h and 0.75 h
CN(Cc1ccccc1)C(=O)CN1CCN(CC(=O)[O-])CCN(CC(=O)[O-])CC1.[44Sc+3]		mouse, bone	intravenous, 1 h		tracer uptake	0.69 %ID/g
COc1cccc(OC)c1-c1cc(C(=O)NC2(C(=O)O)C3CC4CC(C3)CC2C4)nn1-c1ccc(C(=O)N(C)CCOCCN(C)C(=O)[C@H](CCCCNC(=O)[C@H](CC(C)C)NC(=O)C2OC2C(=O)O)NC(=O)CN2CCN(CC(=O)[O-])CCN(CC(=O)[O-])CCN(CC(=O)[O-])CC2)cc1C(C)C.[177Lu+3] (mixture of isomers)		mouse, HT-29 xenograft	72 h post injection, biodistribution	baseline: tumour over muscle uptake	tumour-to-muscle ratio	41.1
N#C[C@@H]1CCCN1C(=O)CNC(=O)c1ccnc2ccc(OCCCN3CCN(C(=O)CCc4ccc(O)c(CN5CCN6CC(=O)[O][Al-]([18F])([O]C(=O)C5)[O]c5ccc(CCC(=O)N7CCN(CCCOc8ccc9nccc(C(=O)NCC(=O)N%10CCC[C@H]%10C#N)c9c8)CC7)cc5C6)c4)CC3)cc12 (some centres unmarked)	radio-TLC	CD-1 mice, plasma	intravenous, 60 min post-injection		radiochemical purity	87.9 ± 4.6%
O=C(c1ccccc1)N1C(c2ccc(OCC3CCN(CCCF)C3)cc2)c2ccc(O)cc2CC12CC2 (centres unmarked)		C57BL/6J mouse, plasma	intraperitoneal, 25 mg/kg		AUC(0-inf)	7380 ng·h/mL and 9450 ng·h/mL
Cc1ncsc1-c1ccc(CNC(=O)[C@@H]2C[C@@H](O)CN2C(=O)[C@@H](NC(=O)COCC(C)(COCCOCCOCCNC(=O)C[C@@H]2N=C(c3ccc(Cl)cc3)c3c(sc(C)c3C)-n3c(C)nnc32)COCCOCCOCCNC(=O)C[C@@H]2N=C(c3ccc(Cl)cc3)c3c(sc(C)c3C)-n3c(C)nnc32)C(C)(C)C)cc1		male C57BL/6 mouse, plasma	subcutaneous, 5 mg/kg, 2 h, single dose		concentration	3550 ng/mL
C/C(N)=N/C(=N\S(=O)(=O)c1ccc(C(F)(F)F)cc1)N1C[C@H](c2ccccc2)C(c2ccc(Cl)cc2)=N1		female cynomolgus monkey, plasma	intravenous, 2 mg/kg		Vd	2.3 L/kg
CC(=O)N([O-])CCCCCNC(=O)CCC(=O)N([O-])CCCCCNC(=O)CCC(=O)N([O-])CCCCCN.[89Zr+4]	radio-TLC	aqueous buffer	1 d, pH 7, 37 °C, 89Zr-labelled complex, with: DTPA 100-fold excess		intact complex	99.6 ± 0.4%
CC(C)c1cnc(-c2cc(Cl)ccc2F)cc1Nc1ccncc1C(=O)NC(CO)CO		female C57BL/6 mice, plasma	oral, 30 mg/kg twice daily, day 7, MC-38 tumour-bearing, tau 8 h		unbound AUC(0-tau)	0.307 µM·h
CC(C(=O)O)n1nc(Cn2cc3cc(OCC[18F])c(Cl)cc3n2)c2ccccc2c1=O (racemic)		rat, brain	2 h		tracer uptake	0.01 %ID/g
O=C(Nc1cnccc1-c1ccc([18F])nc1)c1ccnc(NC(=O)C2CC2)c1	PET imaging	FVB/NJ mice, both sexes, brain	intravenous, 30 min post-injection, P-gp inhibited, with: tariquidar 15 mg/kg iv, 2 h before		SUV	0.153
CC(C)(C)NCC(SS(=O)(=O)O)c1ccccc1 (centres unmarked)		Swiss Webster mice, Schistosoma mansoni-infected	100 mg/kg x 2 doses from day 42 post-infection, perfusion day 56 post-infection		body weight	36.2 g
CN(Cc1ccccc1)C(=O)CN1CCN(CC(=O)[O-])CCN(CC(=O)N(C)Cc2ccccc2)CC1.[44Sc+3]		mouse, stomach	intravenous, 1 h		tracer uptake	2.61 %ID/g
COc1cccc(OC)c1-c1cc(C(=O)NC2(C(=O)O)C3CC4CC(C3)CC2C4)nn1-c1ccc(C(=O)NCCNC(=O)[C@H](CCCCNC(=O)[C@H](CC(C)C)NC(=O)C2OC2C(=O)O)NC(=O)CN2CCN(CC(=O)[O-])CCN(CC(=O)[O-])CCN(CC(=O)[O-])CC2)cc1C(C)C.[177Lu+3] (mixture of isomers)		mouse, HT-29 xenograft, kidney	4 h post injection		tissue uptake	8.6 %ID/g
O=C([O-])CN1CCN(CC(=O)[O-])CCN(Cc2cccc(C(=O)[O-])n2)CC1.[44Sc+3]		mouse, heart	intravenous, 1 h		tracer uptake	0.41 %ID/g
O=C(O)CCCOc1ccc([18F])cc1-c1cc(-c2ccccc2C(F)(F)F)n(-c2ccccc2)n1		mouse, bladder	intravenous, dose not given, 5 min		tissue uptake	0.05 ± 0.02 %ID/g
CN(Cc1ccccc1)C(=O)CN1CCN(CC(=O)N(C)Cc2ccccc2)CCN(Cc2cccc(C(=O)[O-])n2)CC1.[44Sc+3]		mouse, kidney	intravenous, 1 h		tracer uptake	2.72 %ID/g
O=C(NCC1OC2CCC=CCCC2O1)c1ccc([18F])nc1 (centres unmarked)		healthy female BALB/c nude mice, blood	intravenous, 7.4 MBq per mouse, 120 min		tissue uptake	0.4 ± 0.03 %ID/g
